Results from different studies.
“And” joins repeats or separate records; there may be more than shown. ± gives the spread as reported. In brackets after ≈: the same amount, converted by molar mass.

SMILES = CN(Cc1ccc(C2(C(F)(F)F)CCC2)cc1)Cc1cccc2ccccc12; organism = Trichophyton mentagrophytes; assay = microbial growth, disc diffusion; system = ATCC18748; conditions = 0.256 µg/mL, 72 h; measurement = inhibition zone; result = 39.5 mm
SMILES = FC(F)(F)c1cccc(CNc2nc(NC3CCN(Cc4ccccc4)CC3)c3nc[nH]c3n2)c1; organism = Cryptococcus neoformans; assay = RNA-seq; conditions = 48 µg/mL, 3 h; scale = reference: genome; measurement = differentially expressed genes; result = ~18%
SMILES = CN(C(=O)[C@H](Cc1ccccc1)NC(=O)Cc1c[nH]c2ccc(O)cc12)c1ccc(Cl)cc1; organism = human immunodeficiency virus 1; assay = viral replication; system = NL4-3 with subtype AG gag/pol; measurement = EC50; result = 60 ± 8 nM
SMILES = c1ccc2c([C+](c3c[nH]c4ccccc34)c3c[nH]c4ccccc34)c[nH]c2c1; organism = Clostridioides difficile; assay = microbial growth, absorbance; measurement = IC50; result = > 50000 nM
SMILES = CC1(C)[C@H](NC(=O)/C(=N\OCC(=O)N2CCC(C(=O)O)C2)c2nsc(N)n2)C(=O)N1OS(=O)(=O)O (some centres unmarked); organism = Providencia rettgeri; assay = agar dilution; system = ATCC 31052, susceptible; measurement = MIC; result = 0.25 µg/mL (≈ 0.467 µM)
SMILES = O=C1Nc2ccccc2C1(c1c[nH]c2ccccc12)c1c[nH]c2ccccc12; organism = Clostridioides difficile; assay = microbial growth, absorbance; measurement = IC50; result = > 50000 nM
SMILES = CC(C)[C@H](NC(=O)OCc1ccccc1)C(=O)N(C)[C@@H](Cc1ccc(OC(C)(C)C)cc1)C(=O)Nc1ccccc1C(=O)N[C@@H](C)C(=O)O; organism = Candida albicans; assay = potentiator, broth microdilution; system = ATCC 90029; conditions = 4.0 µg/mL, with: amphotericin B; scale = reference: amphotericin B alone; measurement = fold potentiation; result = 8
SMILES = CCC1(CC)CC(=O)N(C2CCOc3ccc(C(=O)NC4CC(C)(C)Oc5ccccc54)cc32)C(=N)N1 (centres unmarked); organism = Plasmodium vivax; assay = invasion of reticulocytes; system = field isolates; conditions = ex vivo; measurement = EC50; result = < 1 nM
SMILES = Cc1cccc2c1N(C(=O)n1ccnn1)CC2; organism = Arabidopsis thaliana; system = wild type, seeds; conditions = 3 µM, high ambient temperature; measurement = germination rate; result = 80.6% and 73.8% and 0% and 3.7% and 78.1% and 75.7%
SMILES = COC1C=COC2(C)Oc3c(C)c(O)c4c(c3C2=O)C2=NC3(CCN(CC(C)C)CC3)NC2=C(NC(=O)C(C)=CC=CC(C)C(O)C(C)C(O)C(C)C(OC(=O)Nc2cnccn2)C1C)C4=O (centres unmarked); organism = Mycobacteroides abscessus; system = ATCC 19977, caseum surrogate; conditions = 5 d, non-replicating; measurement = MBC; result = 1.3 µM (≈ 1.2 µg/mL)
SMILES = CCCOC(=O)N1c2cc(CNC)ccc2[C@H](NC(=O)C(=O)Nc2ccc(Cl)c(F)c2)[C@H]1CNC(=N)N; organism = HIV-1; assay = pseudovirus infection, Env pseudovirus neutralisation; system = TZM-bl, clade C T/F isolate 2A2; measurement = IC80; result = 25100 nM
SMILES = Cc1ccc(N(C)C(=O)[C@H](Cc2ccccc2)NC(=O)Cc2c[nH]c3ccc(O)cc23)cc1; organism = human immunodeficiency virus 1; assay = viral replication; system = NL4-3 with subtype AG gag/pol; measurement = EC50; result = 100 ± 30 nM
SMILES = Cc1c(CN(C)C(=O)/C=C/c2cnc3c(c2)CC(N)C(=O)N3)oc2ccccc12 (centres unmarked); organism = Acinetobacter baumannii; assay = broth microdilution; system = AR-0311; measurement = MIC; result = 8 µg/mL (≈ 20.5 µM)
SMILES = c1ccc(CN2CCOCCOCCN(CCCCCCCCCCCCN3CCOCCOCCN(CCCCCCCCCCCCN4CCOCCOCCN(Cc5ccccc5)CCOCCOCC4)CCOCCOCC3)CCOCCOCC2)cc1; organism = Klebsiella pneumoniae; system = ATCC BAA-2146; conditions = half MIC, with: tetracycline; measurement = tetracycline MIC; result = 125 ± 25 µM
SMILES = Cc1ccccc1-n1nc(C(=O)Nc2cccc(C(N)=O)c2)cc1-c1cccnc1; organism = Dengue virus; assay = viral replication, inhibitor, imaging; system = Vero, DENV2; conditions = 12.5 µM; measurement = inhibition; result = < 50%
SMILES = C=C(NC(=O)c1csc(-c2nc3c(cc2O)-c2nc(cs2)C(=O)NC(C(C)O)C(=O)NC(=C(C)OC)c2nc(cs2)C(=O)NC2c4nc(cs4)C(=O)NC(COC(=O)c4c5c6c(cccc6n4O)COC(=O)C(OC4CC(C)(O)C(N(C)C)C(C)O4)C2OC5)c2nc-3cs2)n1)C(N)=O (centres unmarked); organism = Staphylococcus aureus; system = ATCC 43300 MRSA; conditions = 1 x MIC, 2 h exposure; measurement = post-antibiotic effect; result = 0.82 ± 0.11 h
SMILES = NCCOCCO.O=C(O)C(Cl)Cl; organism = Xanthium sibiricum; conditions = 15 mg/mL, 21 days, post-emergence, greenhouse; measurement = herbicidal inhibition; result = 0%
SMILES = CCCCCCCCCC(=O)N[C@@H](Cc1c[nH]c2ccccc12)C(=O)N[C@H](CC(N)=O)C(=O)N[C@@H](CC(=O)O)C(=O)N[C@@H]1C(=O)NCC(=O)N[C@@H](CCCNC(=O)OC2/C=C/CCCCC2)C(=O)N[C@@H](CC(=O)O)C(=O)N[C@H](C)C(=O)N[C@@H](CC(=O)O)C(=O)NCC(=O)N[C@H](CO)C(=O)N[C@@H]([C@H](C)CC(=O)O)C(=O)N[C@@H](CC(=O)c2ccccc2N)C(=O)O[C@@H]1C (some centres unmarked); organism = Staphylococcus aureus; assay = planktonic bacterial growth, isothermal microcalorimetry; system = MRSA; conditions = 1.0 µg/mL, 24 h, 37 °C; measurement = peak heat flow; result = 0 µW
SMILES = CC(O)CNCC(C)O.O=C(O)C(Cl)Cl (centres unmarked); organism = Xanthium sibiricum; conditions = 15 mg/mL, 21 days, pre-emergence, greenhouse; measurement = herbicidal inhibition; result = 0%
SMILES = COC(=O)C12CSC(c3ccccc3)N1C(=O)C(=C(O)NC1CCCCC1)C2=O (centres unmarked); organism = Streptomyces; assay = bacterial growth, broth dilution; system = Mueller-Hinton broth; conditions = 24 h, 35 °C; measurement = MIC; result = 62.5 µg/mL (≈ 150 µM)
SMILES = CC1(C)[C@H](NC(=O)/C(=N\OCc2c(Cl)cccc2Cl)c2nsc(N)n2)C(=O)N1OS(=O)(=O)O; organism = Providencia rettgeri; assay = agar dilution; system = ATCC 31052, susceptible; measurement = MIC; result = 0.5 µg/mL (≈ 0.927 µM)
SMILES = COC1C=COC2(C)Oc3c(C)c(O)c4c(c3C2=O)C2=NC3(CCN(CC(C)C)CC3)NC2=C(NC(=O)C(C)=CC=CC(C)C(O)C(C)C(O)C(C)C(OC(=O)Nc2cscn2)C1C)C4=O (centres unmarked); organism = Mycobacteroides abscessus; assay = intracellular growth, visual read; system = THP-1 derived macrophages, ATCC 19977; measurement = IC90; result = 185 nM
SMILES = Cc1cc(N2CC[C@@](C#N)(C3(C)CC3)C2=O)cc(C(=O)NCc2cc(F)cc(-c3cnn(C)c3)c2)n1; organism = Plasmodium falciparum; system = Pf3D70087/N9, humanized SCID mouse; conditions = 10 mg/kg, 4-day test, day 5 post-infection; measurement = parasitaemia; result = 1.44%
SMILES = COC(=O)[C@H](C)NC(=O)c1ccccc1NC(=O)[C@H](Cc1ccc(OC(C)(C)C)cc1)N(C)C(=O)[C@@H](NC(=O)OCc1ccccc1)C(C)C; organism = Candida albicans; assay = potentiator, broth microdilution; system = ATCC 90029; conditions = 2.0 µg/mL, with: amphotericin B; scale = reference: amphotericin B alone; measurement = fold potentiation; result = 32
SMILES = C=C[C@]1(C)C[C@@H](OC(=O)CSc2ccc(NC(=O)c3ccco3)cc2)[C@]2(C)[C@H](C)CC[C@]3(CCC(=O)[C@H]32)[C@@H](C)[C@@H]1O; organism = Mycoplasma gallisepticum; system = infected chickens, lung; conditions = intramuscular, 30 mg/kg daily x3, 72 h; scale = reference: 0 h; measurement = lung mycoplasma load reduction; result = 1.27 log10 CFU/mL and 0.931 log10 CFU/mL and 0.479 log10 CFU/mL and 1.24 log10 CFU/mL and 1.78 log10 CFU/mL and 2.14 log10 CFU/mL and 1.06 log10 CFU/mL
SMILES = CC(C)(C)NCC(SS(=O)(=O)O)c1ccccc1 (centres unmarked); organism = Schistosoma mansoni; system = Swiss Webster mouse, infected; conditions = oral, 600 mg/kg single dose, 44 days p.i., dosed day 1 p.i.; measurement = spleen weight; result = 0.44 g and 0.36 g and 0.45 g and 0.38 g
SMILES = C#CCO/N=C(\C(=O)N[C@@H]1C(=O)N(OS(=O)(=O)O)C1(C)C)c1csc(N)n1; organism = Providencia rettgeri; assay = agar dilution; system = ATCC 31052, susceptible; measurement = MIC; result = ≤ 0.03 µg/mL
SMILES = NC(=O)c1cccc(NC(=O)c2cc(-c3ccc(Br)cc3)n(-c3ccccc3)n2)c1; organism = Dengue virus; assay = viral replication, inhibitor, imaging; system = Vero, DENV2; conditions = 12.5 µM; measurement = inhibition; result = > 60%
SMILES = N=C(N)NCCC[C@@H]1NC(=O)[C@H](CCCNC(=N)N)NC(=O)[C@@H](C(c2ccccc2)c2ccccc2)NC(=O)[C@H](Cc2c[nH]c3ccccc23)NC(=O)[C@@H](C(c2ccccc2)c2ccccc2)NC(=O)[C@@H](CCCNC(=N)N)NC(=O)[C@@H](CCCNC(=N)N)NC1=O; organism = Candida albicans; system = ATCC 60193; conditions = 4 x MIC, 12 h; measurement = reduction of viable cells; result = > 95%

Repeated from above:
SMILES = CC1(C)[C@H](NC(=O)/C(=N\OCc2c(Cl)cccc2Cl)c2nsc(N)n2)C(=O)N1OS(=O)(=O)O; organism = Providencia rettgeri; assay = agar dilution; system = ATCC 31052, susceptible; measurement = MIC; result = 0.5 µg/mL (≈ 0.927 µM)
SMILES = Cc1cc(N2CC[C@@](C#N)(C3(C)CC3)C2=O)cc(C(=O)NCc2cc(F)cc(-c3cnn(C)c3)c2)n1; organism = Plasmodium falciparum; system = Pf3D70087/N9, humanized SCID mouse; conditions = 10 mg/kg, 4-day test, day 5 post-infection; measurement = parasitaemia; result = 1.44%
SMILES = NC(=O)c1cccc(NC(=O)c2cc(-c3ccc(Br)cc3)n(-c3ccccc3)n2)c1; organism = Dengue virus; assay = viral replication, inhibitor, imaging; system = Vero, DENV2; conditions = 12.5 µM; measurement = inhibition; result = > 60%
